# Published values from different studies.
# A part holds a random share of what one study measured. Several values in a cell are separate wells, animals, samples, runs or records.
# Sequence of UniProt P15056 (whole entry, unmodified, looked up): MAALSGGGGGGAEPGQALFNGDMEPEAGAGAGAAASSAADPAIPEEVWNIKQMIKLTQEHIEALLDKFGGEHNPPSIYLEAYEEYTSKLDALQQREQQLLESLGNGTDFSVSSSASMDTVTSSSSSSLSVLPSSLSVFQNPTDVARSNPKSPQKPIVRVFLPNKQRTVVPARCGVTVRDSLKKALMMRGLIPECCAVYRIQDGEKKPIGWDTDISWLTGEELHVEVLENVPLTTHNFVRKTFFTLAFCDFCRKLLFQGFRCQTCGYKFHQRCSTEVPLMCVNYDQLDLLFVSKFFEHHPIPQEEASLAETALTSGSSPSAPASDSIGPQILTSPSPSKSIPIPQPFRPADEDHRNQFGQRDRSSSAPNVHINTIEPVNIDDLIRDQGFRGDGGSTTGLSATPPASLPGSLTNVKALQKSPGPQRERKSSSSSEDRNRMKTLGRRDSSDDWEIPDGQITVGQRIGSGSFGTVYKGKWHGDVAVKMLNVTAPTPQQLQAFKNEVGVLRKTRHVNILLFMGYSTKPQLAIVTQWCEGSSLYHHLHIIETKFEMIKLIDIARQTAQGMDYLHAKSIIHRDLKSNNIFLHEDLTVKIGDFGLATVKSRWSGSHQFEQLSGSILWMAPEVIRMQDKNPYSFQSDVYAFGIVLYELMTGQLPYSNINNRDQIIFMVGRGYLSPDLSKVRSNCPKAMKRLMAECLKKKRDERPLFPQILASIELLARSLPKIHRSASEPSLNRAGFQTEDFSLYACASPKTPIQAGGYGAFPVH
# Sequence of UniProt P00519 (whole entry, unmodified, looked up): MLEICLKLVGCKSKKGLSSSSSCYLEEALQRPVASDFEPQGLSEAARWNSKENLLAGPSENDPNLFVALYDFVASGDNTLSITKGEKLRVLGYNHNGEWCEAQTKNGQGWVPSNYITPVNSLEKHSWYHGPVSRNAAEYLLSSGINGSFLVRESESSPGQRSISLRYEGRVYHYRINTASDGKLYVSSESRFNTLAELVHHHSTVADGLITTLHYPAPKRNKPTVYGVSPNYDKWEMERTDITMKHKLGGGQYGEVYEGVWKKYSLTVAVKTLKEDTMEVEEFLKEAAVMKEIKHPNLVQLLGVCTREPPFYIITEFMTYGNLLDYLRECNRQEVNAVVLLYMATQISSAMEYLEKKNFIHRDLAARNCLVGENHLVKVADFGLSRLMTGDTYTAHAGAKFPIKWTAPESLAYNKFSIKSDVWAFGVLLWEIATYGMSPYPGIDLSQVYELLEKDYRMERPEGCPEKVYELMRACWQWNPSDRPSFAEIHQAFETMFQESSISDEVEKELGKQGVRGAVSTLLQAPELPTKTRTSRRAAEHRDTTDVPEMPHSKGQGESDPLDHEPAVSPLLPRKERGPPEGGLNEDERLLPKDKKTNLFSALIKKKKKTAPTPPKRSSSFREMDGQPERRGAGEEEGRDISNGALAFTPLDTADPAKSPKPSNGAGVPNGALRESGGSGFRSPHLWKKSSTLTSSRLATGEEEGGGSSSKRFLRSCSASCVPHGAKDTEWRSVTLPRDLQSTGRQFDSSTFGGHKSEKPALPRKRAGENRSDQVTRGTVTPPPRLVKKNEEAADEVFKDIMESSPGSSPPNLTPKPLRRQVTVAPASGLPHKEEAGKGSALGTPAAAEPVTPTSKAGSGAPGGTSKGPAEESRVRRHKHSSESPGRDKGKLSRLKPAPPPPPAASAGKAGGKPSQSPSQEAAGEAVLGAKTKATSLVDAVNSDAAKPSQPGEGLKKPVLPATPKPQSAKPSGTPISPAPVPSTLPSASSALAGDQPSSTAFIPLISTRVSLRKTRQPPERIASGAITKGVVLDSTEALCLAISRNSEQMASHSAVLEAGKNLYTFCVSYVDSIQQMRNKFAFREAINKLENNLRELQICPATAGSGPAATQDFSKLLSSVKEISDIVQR
# Sequence of UniProt Q13557 (whole entry, looked up): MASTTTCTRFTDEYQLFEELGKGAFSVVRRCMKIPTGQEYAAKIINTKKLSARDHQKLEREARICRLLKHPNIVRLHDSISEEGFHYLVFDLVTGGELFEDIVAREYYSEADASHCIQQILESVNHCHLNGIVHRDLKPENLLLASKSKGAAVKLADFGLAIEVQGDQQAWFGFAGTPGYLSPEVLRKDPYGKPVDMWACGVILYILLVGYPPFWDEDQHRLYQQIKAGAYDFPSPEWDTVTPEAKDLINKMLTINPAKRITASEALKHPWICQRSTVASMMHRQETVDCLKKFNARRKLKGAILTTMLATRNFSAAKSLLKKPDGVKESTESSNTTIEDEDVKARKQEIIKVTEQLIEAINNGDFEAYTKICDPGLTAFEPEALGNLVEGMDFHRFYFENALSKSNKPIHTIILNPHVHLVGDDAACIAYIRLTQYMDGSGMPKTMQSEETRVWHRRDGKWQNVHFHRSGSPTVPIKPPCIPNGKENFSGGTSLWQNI
# Sequence of UniProt O75116 (whole entry, looked up): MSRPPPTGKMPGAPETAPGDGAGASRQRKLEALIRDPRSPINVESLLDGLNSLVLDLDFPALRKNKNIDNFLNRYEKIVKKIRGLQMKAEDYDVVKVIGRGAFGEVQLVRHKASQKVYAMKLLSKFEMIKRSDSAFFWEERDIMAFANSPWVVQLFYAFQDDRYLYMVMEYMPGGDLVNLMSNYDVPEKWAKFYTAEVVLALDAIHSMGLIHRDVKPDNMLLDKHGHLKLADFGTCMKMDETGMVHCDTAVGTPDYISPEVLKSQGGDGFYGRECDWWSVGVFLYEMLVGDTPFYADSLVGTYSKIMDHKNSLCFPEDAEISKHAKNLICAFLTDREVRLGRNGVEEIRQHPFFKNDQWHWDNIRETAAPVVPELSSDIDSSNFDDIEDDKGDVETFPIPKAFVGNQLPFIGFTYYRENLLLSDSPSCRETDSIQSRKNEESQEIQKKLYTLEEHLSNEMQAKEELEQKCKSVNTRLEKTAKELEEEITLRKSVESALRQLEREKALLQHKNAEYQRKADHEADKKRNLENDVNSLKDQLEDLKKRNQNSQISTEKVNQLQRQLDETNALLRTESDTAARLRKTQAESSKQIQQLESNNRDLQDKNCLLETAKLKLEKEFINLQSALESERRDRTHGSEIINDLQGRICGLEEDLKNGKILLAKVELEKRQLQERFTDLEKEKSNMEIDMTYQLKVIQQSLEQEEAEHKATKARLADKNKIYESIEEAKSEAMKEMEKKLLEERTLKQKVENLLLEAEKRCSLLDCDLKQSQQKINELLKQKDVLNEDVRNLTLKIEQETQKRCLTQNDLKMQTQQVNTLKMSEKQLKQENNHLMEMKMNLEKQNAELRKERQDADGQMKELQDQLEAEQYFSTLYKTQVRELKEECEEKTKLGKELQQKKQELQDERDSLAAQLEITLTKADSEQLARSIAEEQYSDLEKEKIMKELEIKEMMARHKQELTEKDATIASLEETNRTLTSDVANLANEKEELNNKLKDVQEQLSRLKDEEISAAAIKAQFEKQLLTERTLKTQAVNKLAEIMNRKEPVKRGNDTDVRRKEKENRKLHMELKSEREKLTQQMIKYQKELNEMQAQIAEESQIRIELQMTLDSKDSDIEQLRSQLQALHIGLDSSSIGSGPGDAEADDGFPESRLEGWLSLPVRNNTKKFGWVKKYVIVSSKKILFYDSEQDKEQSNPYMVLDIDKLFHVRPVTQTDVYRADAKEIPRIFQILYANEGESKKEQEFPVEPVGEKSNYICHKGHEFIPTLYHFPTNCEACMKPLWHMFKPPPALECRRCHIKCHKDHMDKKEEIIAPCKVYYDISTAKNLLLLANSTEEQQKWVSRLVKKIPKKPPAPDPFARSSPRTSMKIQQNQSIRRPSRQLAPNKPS
# Sequence of UniProt Q16620 (whole entry, looked up): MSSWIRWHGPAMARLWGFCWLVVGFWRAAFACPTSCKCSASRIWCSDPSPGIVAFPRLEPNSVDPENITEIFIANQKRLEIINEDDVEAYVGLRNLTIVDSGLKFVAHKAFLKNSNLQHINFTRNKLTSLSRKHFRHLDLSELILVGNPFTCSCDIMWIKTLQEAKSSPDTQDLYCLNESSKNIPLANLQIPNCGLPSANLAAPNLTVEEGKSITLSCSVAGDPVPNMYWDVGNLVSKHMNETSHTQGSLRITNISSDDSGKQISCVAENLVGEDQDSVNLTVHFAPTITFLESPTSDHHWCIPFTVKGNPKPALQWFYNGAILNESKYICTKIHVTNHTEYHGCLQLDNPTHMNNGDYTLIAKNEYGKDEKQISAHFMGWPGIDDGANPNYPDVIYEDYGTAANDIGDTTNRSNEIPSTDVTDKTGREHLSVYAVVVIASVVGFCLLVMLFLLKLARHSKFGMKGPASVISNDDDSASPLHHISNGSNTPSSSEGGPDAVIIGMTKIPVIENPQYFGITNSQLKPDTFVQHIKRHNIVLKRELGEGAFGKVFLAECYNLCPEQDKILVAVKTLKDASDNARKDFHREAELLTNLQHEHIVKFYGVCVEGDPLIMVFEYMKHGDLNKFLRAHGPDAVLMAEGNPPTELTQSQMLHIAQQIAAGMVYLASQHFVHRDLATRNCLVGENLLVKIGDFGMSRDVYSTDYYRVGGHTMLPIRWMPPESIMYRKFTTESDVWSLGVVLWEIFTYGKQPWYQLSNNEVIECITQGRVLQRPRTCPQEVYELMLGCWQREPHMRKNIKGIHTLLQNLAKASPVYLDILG

# Block 1
# Structure (SMILES): Cc1ccc(NC(=O)c2ccnc(C(F)(F)F)c2)cc1-c1cc(OCCO)nc(N2CCOCC2)c1
# Concentration: 1 µM
target,assay,conditions,how to read,remaining binding [%]
"MAP3K7 (Homo sapiens, UniProt O43318)","competitive binding panel, item: TAK1",,reference: vehicle,96
"CHUK (Homo sapiens, UniProt O15111)",competitive binding,IKK-alpha,,50
"ABL1 (Homo sapiens, UniProt P00519, Y253F)",competitive binding panel,,reference: vehicle,100
"TEC (Homo sapiens, UniProt P42680)",competitive binding panel,,reference: vehicle,90
"IKBKB (Homo sapiens, UniProt O14920)",competitive binding,IKK-beta,,97
"DCLK1 (Homo sapiens, UniProt O15075)","competitive binding panel, item: DCAMKL1",,reference: vehicle,96
"DYRK2 (Homo sapiens, UniProt Q92630)",competitive binding panel,,reference: vehicle,99
"MAPK4 (Homo sapiens, UniProt P31152)","competitive binding panel, item: ERK4",,reference: vehicle,96
"NEK11 (Homo sapiens, UniProt Q8NG66)",competitive binding panel,,reference: vehicle,88

# Block 2
# Structure (SMILES): O=C(O)[C@H]1[C@H](Cn2nnc3ccccc3c2=O)CC[C@@H]1C(=O)c1ccc(OCCC2CCOCC2)cc1
# Effect on: cell-free assay
# Technique: competition with immobilised ligand
# Concentration: 1 µM
target,remaining binding
"ROCK2 (Homo sapiens, UniProt O75116)",80%
"EGFR (Homo sapiens, UniProt P00533, del747-752/P753S)",76%
"BRAF (Homo sapiens, UniProt P15056, V600E)",100%
"CLK3 (Homo sapiens, UniProt P49761)",100%
"RIPK1 (Homo sapiens, UniProt Q13546)",84%
"BRAF (Homo sapiens, UniProt P15056)",100%
"PIK3CB (Homo sapiens, UniProt P42338)",80%
"Tyrosine-protein kinase ABL1, non-phosphorylated (ABL1, Homo sapiens, UniProt P00519, F317L)",75%
"TSSK3 (Homo sapiens, UniProt Q96PN8)",85%
"NTRK2 (Homo sapiens, UniProt Q16620)",75%
"CAMK2D (Homo sapiens, UniProt Q13557)",86%
"SGK3 (Homo sapiens, UniProt Q96BR1)",100%
"NLK (Homo sapiens, UniProt Q9UBE8)",100%
"MYLK4 (Homo sapiens, UniProt Q86YV6)",100%
"PI4KB (Homo sapiens, UniProt Q9UBF8)",93%
"MAP2K2 (Homo sapiens, UniProt P36507)",100%
"CDK14 (Homo sapiens, UniProt O94921)",100%
"BRSK2 (Homo sapiens, UniProt Q8IWQ3)",100%
"PAK6 (Homo sapiens, UniProt Q9NQU5)",100%
"DAPK1 (Homo sapiens, UniProt P53355)",89%
"CSNK1G2 (Homo sapiens, UniProt P78368)",87%
"PIK3C3 (Homo sapiens, UniProt Q8NEB9)",93%
"EPHA4 (Homo sapiens, UniProt P54764)",90%
"PIK3CD (Homo sapiens, UniProt O00329)",89%
"PRKD2 (Homo sapiens, UniProt Q9BZL6)",73%

# Block 3
# Target: Eukaryotic initiation factor 4A-I (EIF4A1, Homo sapiens, UniProt P60842)
# Sequence of UniProt P60842 (whole entry, looked up): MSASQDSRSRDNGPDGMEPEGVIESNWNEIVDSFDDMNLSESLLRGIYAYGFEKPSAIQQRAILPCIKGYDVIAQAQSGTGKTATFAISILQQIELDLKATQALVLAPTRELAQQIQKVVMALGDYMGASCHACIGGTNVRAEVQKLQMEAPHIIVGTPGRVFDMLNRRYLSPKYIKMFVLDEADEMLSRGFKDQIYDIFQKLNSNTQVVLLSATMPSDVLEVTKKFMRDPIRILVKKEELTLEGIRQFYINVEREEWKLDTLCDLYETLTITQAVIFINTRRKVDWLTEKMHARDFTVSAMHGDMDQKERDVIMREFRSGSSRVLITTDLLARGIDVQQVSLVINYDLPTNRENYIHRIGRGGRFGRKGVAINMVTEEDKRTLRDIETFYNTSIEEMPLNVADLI
# Effect on: RNA clamping
# Technique: fluorescence polarization
# Concentration: concentration not given
# Together with: FAM-labelled poly r(AG)8 RNA
# Reading: higher = more clamping
SMILES,fluorescence polarization change
COc1ccc([C@]23Oc4cc(OC)cc(OC)c4[C@@]2(O)c2nc(-c4cccc(OC)c4)[nH]c(=O)c2[C@@H]3c2ccccc2)cc1,11.6 mP
COc1ccc([C@@]23Oc4cc(OC)cc(OC)c4[C@]2(O)[C@H](O)[C@H](C(=O)c2ccco2)[C@H]3c2ccccc2)cc1,46.3 mP and 34 mP
C#CCCC1(CCOc2cc(OC)c3c(c2)O[C@@]2(c4ccc(OC)cc4)[C@H](c4ccccc4)[C@@H](C(=O)c4ccco4)[C@@H](O)[C@@]32O)N=N1,1.4 mP
COc1ccc([C@@]23Oc4cc(OC)cc(OC)c4[C@]2(O)[C@@H]2OC(=O)[C@@H]2[C@H]3c2ccccc2)cc1,43.3 mP
C#CCCC(=O)O[C@@H]1[C@H](C(=O)c2ccco2)[C@@H](c2ccccc2)[C@]2(c3ccc(OC)cc3)Oc3cc(OC)cc(OC)c3[C@]12O,2.8 mP
COc1ccc([C@@]23Oc4cc(OC)cc(OC)c4[C@]2(O)c2nc(-c4ccccc4)[nH]c(=O)c2/C3=C\Cc2ccccc2)cc1,-11.2 mP
O=C1O[C@H]2[C@@H]1[C@H](c1ccccc1)[C@@]1(c3ccccc3)Oc3ccccc3[C@@]21O,10.7 mP
CCCN(CCC)[C@@]12C(=O)[C@H](C(=O)OC)[C@@H](c3ccccc3)[C@]1(c1ccc(OC)cc1)Oc1cc(OC)cc(OC)c12,0.2 mP

# Block 4
# Target: Cytoplasmic tyrosine-protein kinase BMX (BMX, Homo sapiens, UniProt P51813)
# Effect on: enzyme activity
# Action: inhibitor
# Concentration: 0.5 µM
# Reference: control
# Residues (P51813 1-675): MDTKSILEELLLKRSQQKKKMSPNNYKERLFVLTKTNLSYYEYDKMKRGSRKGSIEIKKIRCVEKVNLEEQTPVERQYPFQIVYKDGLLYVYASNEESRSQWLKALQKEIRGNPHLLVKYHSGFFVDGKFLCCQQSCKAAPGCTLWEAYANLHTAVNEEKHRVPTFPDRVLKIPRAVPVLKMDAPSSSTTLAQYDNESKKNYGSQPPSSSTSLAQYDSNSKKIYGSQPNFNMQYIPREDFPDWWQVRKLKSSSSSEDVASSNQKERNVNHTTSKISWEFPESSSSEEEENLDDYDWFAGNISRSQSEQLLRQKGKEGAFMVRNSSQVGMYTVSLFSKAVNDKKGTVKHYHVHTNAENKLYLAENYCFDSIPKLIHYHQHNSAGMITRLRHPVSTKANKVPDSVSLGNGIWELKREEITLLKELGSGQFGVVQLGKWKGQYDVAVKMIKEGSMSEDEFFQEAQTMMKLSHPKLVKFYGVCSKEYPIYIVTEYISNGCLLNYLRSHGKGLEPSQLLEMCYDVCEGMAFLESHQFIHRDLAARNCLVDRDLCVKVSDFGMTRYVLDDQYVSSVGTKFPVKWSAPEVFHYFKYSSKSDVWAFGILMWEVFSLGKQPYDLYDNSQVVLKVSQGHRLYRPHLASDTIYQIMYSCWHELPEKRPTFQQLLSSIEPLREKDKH
SMILES,remaining activity
N#C/C(=C\c1ccc(O)c(O)c1)C(=O)NCc1ccccc1,88.8%
Cc1nc2cc3nc(-c4cccs4)cnc3cc2n1C,117%
O=C(Nc1cccc(Nc2nccc(Nc3cccc(C(F)(F)F)c3)n2)c1)C1CC1,83.6%
CN([C@@H](Cc1ccc(OS(=O)(=O)c2cccc3cnccc23)cc1)C(=O)N1CCN(c2ccccc2)CC1)S(=O)(=O)c1cccc2cnccc12,97.4%
CCOc1nc(NC(=O)Cc2cc(OC)ccc2OC)cc(N)c1C#N,98.4%
c1ccc(-c2cnc(Nc3ccc(OCCN4CCCC4)cc3)s2)cc1,84.5%
N#Cc1c(NC(=O)c2cccc3ccccc23)sc2c1CCCC2,101%
O=C1C(Cl)=C(N2C(=O)CCC2=O)C(=O)c2ccccc21,103%
Cc1cc2ncc(-c3ccccc3)nc2cc1C,90%
c1ccc(-c2[nH]ncc2-c2ccnc3ccccc23)nc1,89.2%
C[C@@H]1CCN(C(=O)CC#N)C[C@@H]1N(C)c1ncnc2[nH]ccc12,111%
O=C(NC(NC(=S)Nc1ccc(F)c([N+](=O)[O-])c1)C(Cl)(Cl)Cl)C(c1ccccc1)c1ccccc1 (stereo not drawn),102%
COc1cc2ncnc(Nc3ccc(O)c(Br)c3)c2cc1OC,95.3%
COc1cc2ncnc(Nc3cccc(Cl)c3)c2cc1OC,88.6%
CCN(CC)C(=O)c1ccc(Nc2nc(OCC3CCCCC3)c3[nH]cnc3n2)cc1,42.9%
COc1cc2c(cc1OC)-c1[nH]nc(Nc3cccc(F)c3)c1C2,74.8%
Cn1nc2c3c(cccc31)C(=O)c1ccccc1-2,101%
CCN(CC)CCNC(=O)c1c(C)[nH]c(/C=C2\C(=O)Nc3ccc(F)cc32)c1C,99%
Ic1cccc(CSc2nnc(-c3ccncc3)o2)c1,86.6%
CN(C)C[C@H]1CCn2c(c(C3=C(c4cn(C)c5ccccc45)C(=O)NC3=O)c3ccccc32)C1,91.7%
Nc1cccc(-c2cc3c(Oc4cccc(O)c4)ncnc3[nH]2)c1,24.3%

# Some of these lines once more (block 4):
SMILES,remaining activity
COc1cc2c(cc1OC)-c1[nH]nc(Nc3cccc(F)c3)c1C2,74.8%
CN(C)C[C@H]1CCn2c(c(C3=C(c4cn(C)c5ccccc45)C(=O)NC3=O)c3ccccc32)C1,91.7%
Ic1cccc(CSc2nnc(-c3ccncc3)o2)c1,86.6%
CCN(CC)CCNC(=O)c1c(C)[nH]c(/C=C2\C(=O)Nc3ccc(F)cc32)c1C,99%
